Measurements collected from several papers.
Every numbered part comes from another study and shows a few of its results, in no order. Changes are numbered by the printed parent chain.

Study 1 — target: ATF5, bZIP domain (human); technique: DHFR protein complementation; matrix: yeast; relative to: wild-type JUN-FOS pair; direction: higher = stronger binding
Setting: single substitutions, most at no-binding floor
Starting sequence: JUN, bZIP domain (human); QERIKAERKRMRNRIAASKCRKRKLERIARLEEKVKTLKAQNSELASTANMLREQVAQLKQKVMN; partner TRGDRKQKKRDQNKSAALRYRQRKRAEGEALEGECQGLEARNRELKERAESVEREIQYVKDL
| Change | binding fitness |
| --- | --- |
| S47D | -1.49 natural log |
| E44L | -1.45 natural log |
| A46D | -1.49 natural log |

Study 2 — technique: universal PBM; form: double-stranded DNA, one strand shown; matrix: in vitro; concentration: not given; direction: higher = stronger binding
Target: Sal-like protein 4, full length isoform B (SALL4, Homo sapiens, UniProt Q9UJQ4-2, residues 1-616)
Setting: 8-mer, flanks averaged, mean of replicates
| Oligonucleotide | E-score |
| --- | --- |
| CATCACAA | 0.191 |
| CCAGTATA | 0.108 |
| CGCCTAGC | -0.279 |
| CTACGCGC | -0.277 |
| CTGGACCA | -0.213 |
| GTCGGCTA | -0.113 |
| CCGATGAG | -0.148 |

Study 3 — technique: protein-binding microarray; form: double-stranded DNA, one strand shown; matrix: in vitro; concentration: not given; direction: higher = stronger binding
Target: Max-binding protein MNT, bHLH-zipper, MAX partner unstated (MNT, Homo sapiens, UniProt Q99583, residues 220-300)
Setting: k-mer, scored over probes, only values ≥0.25
Residues (chain): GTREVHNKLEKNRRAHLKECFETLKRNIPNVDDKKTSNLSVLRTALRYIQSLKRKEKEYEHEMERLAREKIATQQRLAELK
| Oligonucleotide | E-score |
| --- | --- |
| ATGCCATG | 0.32 |
| CCCATGCC | 0.331 |
| CCACGTTA | 0.392 |
| ACGTTAGG | 0.263 |
| CCCCGGGA | 0.251 |

Mixed results
| Molecule | target | test | test system | conditions | scale | endpoint | result |
| --- | --- | --- | --- | --- | --- | --- | --- |
| PhoQ, residues 284 288 289 292 302 303 SCEHLI | PhoP, residues 12 14 15 18 19 LYHSL (Escherichia coli, UniProt P23836) | Sort-seq, measured: YFP reporter | E. coli | PhoQ-PhoP variant library, together with: 10 µM Mg2+ | relative to: high Mg2+ state, higher = stronger signaling | fold induction | 8.82 |
